Published values from different studies.
Compare with care: the assays were run in different laboratories. ± gives the spread as reported.

SMILES | assay | system | conditions | scale | endpoint | value
CC(C)(C(=O)N1CCOc2c(C#N)cncc2C1)C(F)F | refers to: Conjunctivitis | human | oral, 20 mg once daily, 14 days, multiple ascending dose | – | subjects with adverse event | 12.5%
CCn1cc(C(=O)N2CCOCC2)c(=O)c2cc(NC3Cc4ccccc4C3)cnc21 | – | human, fed | oral tablet, 300 mg single dose, arithmetic mean | – | half-life | 4.12 h
NCCCN1c2ccccc2CCc2ccccc21 | reverse phase LC, C18 | acetonitrile gradient, 0.1% formic acid | converted from retention time | reference: Valko CHI standards | chromatographic hydrophobicity index | 62.3
O=C1CCc2ccc(OCCCCN3CCN(c4cccc(Cl)c4Cl)CC3)cc2N1 | refers to: Rigidity | genotyped patients, CYP2D6 ultrarapid metabolizers | dose not given, long-acting oral or depot | – | adverse event incidence | 13%
O=C[C@H]([18F])[C@@H](O)[C@H](O)[C@H](O)CO | – | Kunming mice, turpentine inflammation, inflamed muscle | intravenous, 0.74 MBq, 60 min | – | tissue uptake | 6.93 ± 0.9 %ID/g
CC(C)(C)OC[C@@H]1C(=O)NCCN1C(=O)C[C@H](N)Cc1cc(F)c(F)cc1F | – | human, plasma | oral, steady state, EP treatment | – | Vdss/F | 1780 ± 505 L
CN1C(=O)[C@@H](NC(=O)c2nnc(Cc3ccccc3)[nH]2)COc2cccnc21 | phase I single ascending dose | human, male and female | oral, 30 mg, fasted | – | participants with any serious TEAE | 0%
CCOC(=O)N1C[C@@H](C2CCCCC2)N[C@@H](c2ccc(C(F)(F)F)cc2)C1 | shake-flask, 1-octanol/buffer | – | pH 7.4 | – | logD | > 4.7
C[C@H]1CNCCCN1S(=O)(=O)c1cccc2cncc(F)c12 | – | healthy adult men | ocular, 1 drop per eye twice daily, 8 days, adverse event | – | subjects feeling hot | 5.6%
Cl.[2H]C([2H])([2H])CC(=O)c1cnc(NC(=O)C2CC2)cc1Nc1cccc(-c2ncn(C([2H])([2H])[2H])n2)c1OC | geometric mean | human | oral, 40 mg twice daily, day 1, fed, liquid, multiple dose | – | elimination rate constant | 3.89e-05 s⁻¹
CC[C@@H]1CN(C(=O)NCC(F)(F)F)C[C@@H]1c1cnc2cnc3[nH]ccc3n12 | population PK modelling | human | oral, immediate-release formulation, outliers re-estimated | – | absorption rate constant (Ka) | 2.75 h⁻¹
O=C(O)CN1CCCN2CCN(Cc3ccccc3)CCCN(CC1)Cc1cccc(n1)C2 | – | 64Cu complex | 48 h, 70 °C, added: DOTA excess | – | intact complex | 95%
C=CC(=O)NC1CCN(c2ncc3ncnc(Nc4ccc(Oc5ccc6c(c5)ncn6C)c(C)c4)c3n2)CC1 | refers to: conjunctival haemorrhage | human male | oral, dose not given, CTCAE on-treatment AEs | – | adverse events incidence | 0%
CCOc1c([C@H](C)n2nc(C)c3c(N)ncnc32)cc(Cl)c(F)c1[C@@H]1CNC(=O)C1 | – | patients with B-cell malignancies, plasma | oral, 20 mg, day 15, all cohorts, monotherapy | – | Cmax | 1740 nM
CC(C)(C)C[C@@H]1COC[C@H](c2ccc(C(F)(F)F)cc2)N1 | shake-flask, 1-octanol/buffer | – | pH 7.4 | – | logD | > 4.7
Cc1cc(Nc2cc3ncccc3c(N[C@@H]3C[C@H]4CC[C@@H](C3)N4CCC#N)n2)n[nH]1 | – | healthy human subjects | oral, 100 mg, 2 weeks, single ascending dose | – | skin subcutaneous disorders incidence | 50%
Cc1cc(-c2nccc3c2ccn3CC(=O)Nc2ccc(-c3cnccn3)cn2)ccn1 | – | human | 20 mg once daily, multiple ascending dose | – | subjects with coronavirus infection | 0%
COc1cc(-c2nnc(SCC(N)=O)n2C)cc(OC)c1OC | – | octanol/buffer | pH 7.4 | – | logD | 0.08
Cc1cc(C(=O)NC(C)(C)COc2cccc3c2C(N)=NS(=O)(=O)N3)cc(C)n1 | – | Sprague-Dawley rat, female, plasma | intravenous, 1 mg/kg | – | Vz | 0.575 L/kg
NC1(C(=O)N[C@@H](CCO)c2ccc(Cl)cc2)CCN(c2nc[nH]c3nccc2-3)CC1 | – | human mCRPC patients | oral, twice daily, 4/7 days, grade 3/4, treatment-related, added: enzalutamide 160 mg daily | – | lower abdominal pain incidence | 0%
Cn1cnc2c(F)c(Nc3ccc(Br)cc3Cl)c(C(=O)NOCCO)cc21 | population PK model | human, plasma | oral, zero-order absorption model, fed | – | absorption lag time | 0.62 h
CC#CC(=O)N1CCC[C@H]1c1nc(-c2ccc(C(=O)Nc3ccccn3)cc2)c2c(N)nccn12 | – | PBS | 100 µM, 23 h, pH 8, 37 °C, added: cysteine 10 mM | – | cysteine adduct formation | 97%

SMILES | assay | system | conditions | scale | endpoint | value
Cc1cn([C@H]2C[C@H](N=[N+]=[N-])[C@@H](CO)O2)c(=O)[nH]c1=O | – | human cells, human | – | – | CC50 | > 10 µM
Cc1ccc(C(=O)N(CCCN)C(c2nc3snc(C)c3c(=O)n2Cc2ccccc2)C(C)C)cc1 (centres unmarked) | – | human patients | intravenous, 7 mg/day | – | grade ≥3 fatigue patients | 0%
c1ccc(CN2CCCN3CCN(Cc4ccccc4)CCCN(CC2)Cc2cccc(n2)C3)cc1 | – | 64Cu complex | 48 h, 70 °C, added: DOTA excess | – | intact complex | 91%
CN(CCC(=O)O)C(=O)c1ccc2c(c1)CC[C@@H]1[C@@H]2CC[C@]2(C)C(c3cncc(F)c3)=CC[C@@H]12 | – | premenopausal women, endometriosis pain, serum | 60 mg twice daily, visit 6, mean | reference: baseline | direct bilirubin change | 0.215 mg/dL
CNCc1ccc(-c2[nH]c3cc(F)cc4c3c2CCNC4=O)cc1 | refers to: Cough | human patients | oral, 600 mg twice daily, grade 3 | – | patients with adverse event | 0%
CCc1c(-c2ccccc2)c(-c2ccccc2)nn1-c1ccccc1-c1cccc(OCC(=O)O)c1 | – | Sprague-Dawley rat, -Brain homogenate | oral, 10 mg/kg, 8 h | – | concentration | 4.05 ng/mL
COc1ccccc1-n1nnnc1SCC(=O)Nc1ccccc1SC | – | octanol/buffer | pH 7.4 | – | logD | 3.14
Cc1cc(/C=C/C#N)cc(C)c1Nc1ccnc(Nc2ccc(C#N)cc2)n1 | – | human, haemodialysis patients, plasma | oral, dose not given, 24 h, steady state, fixed-dose combination | – | Ctau | 50 ng/mL
CC1(CNC(=O)[C@H](CN)NC(=O)c2ccc(C#Cc3ccccc3)cc2)NC(=O)NC1=O (some centres unmarked) | – | octanol/buffer | pH 7.4 | – | logD | 1.92
CCc1nc(C(N)=O)c(Nc2ccc(N3CCC(N4CCN(C)CC4)CC3)c(OC)c2)nc1NC1CCOCC1 | – | Japanese patients, plasma | oral, 40 mg, cycle 1 day 28, multiple doses, median | – | Cmax | 158 ng/mL
Cc1ccc(N(C)C(=O)/C=C/c2ccco2)cc1 | hot plate test | mice | oral, 30 mg/kg daily for 7 days, 45 min, day 8 | – | licking latency | 15.1 ± 0.4 s
O=C(Nc1nc2cccc(-c3ccc(CN4CCS(=O)(=O)CC4)cc3)n2n1)C1CC1 | refers to: gingival bleeding | human rheumatoid arthritis patients | oral, 75 mg once daily, 4 weeks, regardless of relatedness | – | treatment-emergent adverse events | 4.5%
Cc1cc(Nc2ccc(S(F)(F)(F)(F)F)cc2)n2nc(C(C)(F)F)nc2n1 | – | mouse (CD-1, female), whole blood | 50 µM, 120 min, 37 °C | – | blood/plasma ratio | 0.83 ± 0.087
COc1cc2c3cc1Oc1c(OC)c(OC)cc4c1[C@@H](Cc1ccc(O)c(c1)Oc1ccc(cc1)C[C@@H]3N(C)CC2)N(C)CC4 | – | mouse plasma, K3EDTA | 2 h, 37 °C | – | remaining compound | 96%
CC(C)(C)c1ccc([C@H]2COC[C@@H](c3ccc(F)cc3)N2)cc1 | shake-flask, 1-octanol/buffer | – | pH 7.4 | – | logD | > 4.7
C/C=C/C[C@@H](C)C(=O)[C@H]1C(=O)N[C@@H](C(C)C)C(=O)N(C)CC(=O)N(C)[C@@H](CC(C)C)C(=O)N[C@@H](C(C)C)C(=O)N(C)[C@@H](CC(C)C)C(=O)N[C@@H](C)C(=O)N[C@H](C)C(=O)N(C)[C@@H](CC(C)C)C(=O)N(C)[C@@H](CC(C)C)C(=O)N(C)[C@@H](C(C)C)C(=O)N1C | – | Sprague Dawley rat, plasma | intravenous infusion, 0.29 mg/h/kg, 4 h, 4.5 h constant infusion | – | free plasma concentration | 71.1 ng/mL
OCc1nc2ccc(NCc3ccc(C(F)(F)F)cc3)cc2[nH]1 | – | Balb/c mouse, male, lungs | oral, 10 mg/kg, 6 h | – | tissue concentration | 183 ± 37.6 ng/g
CCN1/C(=C/C(C)=O)Sc2ccc(F)cc21 | – | cynomolgus monkey | oral, 10 mg/kg, 2 h post-dose | – | PR interval | 92 ± 2 ms
FC(F)(F)c1ccc(CNc2ccc(Cc3c[nH]c4ncc(Cl)cc34)cn2)cn1 | refers to: peripheral oedema | human, advanced solid tumours, non-TGCT cohort | oral, 1000 mg/day, any grade | – | treatment-related adverse events | 4%
CCOC(=O)N1C[C@@H](c2ccc(C(C)(C)C)cc2)N[C@@H](c2ccc(F)c(C#N)c2)C1 | shake-flask, 1-octanol/buffer | – | pH 7.4 | – | logD | > 4.7
CC[C@H](C)[C@H](NC(=O)[C@H](CO)NC(=O)[C@H](CCCNC(=N)N)NC(C)=O)C(=O)N[C@H]1CSSC[C@@H](C(=O)N[C@H](C(N)=O)[C@@H](C)O)NC(=O)[C@H](CCCNC(=N)N)NC(=O)[C@H](Cc2c[nH]cn2)NC(=O)[C@H](C)NC(=O)CNC(=O)[C@H](Cc2c[nH]c3ccccc23)NC(=O)[C@H](CC(=O)O)NC(=O)[C@H](CCC(N)=O)NC(=O)[C@H](Cc2cccc3ccccc23)NC(=O)[C@H](C(C)C)NC1=O | isocratic RP-HPLC, C18 | 32% acetonitrile, phosphate pH 7.4, 1% TFA | 25 °C | – | log retention factor | 0.068
CSc1cc(C)nc(SC)c1NC(=O)CN1CCN(CCSc2nc3ccccc3[nH]2)CC1.Cl | – | mouse, olfactory bulb | intranasal, 7 days daily, 120 min, HA 10 µL, LLOQ 1 ng/g | – | tissue concentration | not detected

Some of these lines once more:
SMILES | assay | system | conditions | scale | endpoint | value
Cc1cc(Nc2cc3ncccc3c(N[C@@H]3C[C@H]4CC[C@@H](C3)N4CCC#N)n2)n[nH]1 | – | healthy human subjects | oral, 100 mg, 2 weeks, single ascending dose | – | skin subcutaneous disorders incidence | 50%
O=C1CCc2ccc(OCCCCN3CCN(c4cccc(Cl)c4Cl)CC3)cc2N1 | refers to: Rigidity | genotyped patients, CYP2D6 ultrarapid metabolizers | dose not given, long-acting oral or depot | – | adverse event incidence | 13%
OCc1nc2ccc(NCc3ccc(C(F)(F)F)cc3)cc2[nH]1 | – | Balb/c mouse, male, lungs | oral, 10 mg/kg, 6 h | – | tissue concentration | 183 ± 37.6 ng/g
Cc1cc(-c2nccc3c2ccn3CC(=O)Nc2ccc(-c3cnccn3)cn2)ccn1 | – | human | 20 mg once daily, multiple ascending dose | – | subjects with coronavirus infection | 0%
CSc1cc(C)nc(SC)c1NC(=O)CN1CCN(CCSc2nc3ccccc3[nH]2)CC1.Cl | – | mouse, olfactory bulb | intranasal, 7 days daily, 120 min, HA 10 µL, LLOQ 1 ng/g | – | tissue concentration | not detected
COc1ccccc1-n1nnnc1SCC(=O)Nc1ccccc1SC | – | octanol/buffer | pH 7.4 | – | logD | 3.14
